# Measured values gathered from unrelated publications.
# Chains of the proteins cited; added tags and fusions are not shown. Residues count along the entry.
# UniProt P26045, 646-901 limits assumed: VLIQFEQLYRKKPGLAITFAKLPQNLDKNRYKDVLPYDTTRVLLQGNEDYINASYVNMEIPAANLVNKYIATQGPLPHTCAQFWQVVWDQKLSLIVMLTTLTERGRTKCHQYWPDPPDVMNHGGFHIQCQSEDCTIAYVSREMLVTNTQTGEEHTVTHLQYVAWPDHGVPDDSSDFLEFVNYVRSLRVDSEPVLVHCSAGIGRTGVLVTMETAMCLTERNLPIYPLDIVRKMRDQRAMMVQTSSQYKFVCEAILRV
# UniProt P41146, whole entry: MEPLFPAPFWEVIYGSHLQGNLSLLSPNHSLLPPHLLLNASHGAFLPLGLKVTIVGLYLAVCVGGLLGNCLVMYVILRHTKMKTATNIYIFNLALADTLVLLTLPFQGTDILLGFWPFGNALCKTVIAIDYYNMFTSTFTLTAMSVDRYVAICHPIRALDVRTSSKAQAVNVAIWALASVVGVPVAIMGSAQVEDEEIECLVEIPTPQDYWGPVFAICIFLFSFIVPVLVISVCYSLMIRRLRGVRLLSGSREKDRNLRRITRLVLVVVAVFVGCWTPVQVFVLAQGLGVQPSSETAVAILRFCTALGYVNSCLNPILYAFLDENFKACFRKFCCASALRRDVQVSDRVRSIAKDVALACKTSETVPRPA
# UniProt P22303, whole entry, looked up: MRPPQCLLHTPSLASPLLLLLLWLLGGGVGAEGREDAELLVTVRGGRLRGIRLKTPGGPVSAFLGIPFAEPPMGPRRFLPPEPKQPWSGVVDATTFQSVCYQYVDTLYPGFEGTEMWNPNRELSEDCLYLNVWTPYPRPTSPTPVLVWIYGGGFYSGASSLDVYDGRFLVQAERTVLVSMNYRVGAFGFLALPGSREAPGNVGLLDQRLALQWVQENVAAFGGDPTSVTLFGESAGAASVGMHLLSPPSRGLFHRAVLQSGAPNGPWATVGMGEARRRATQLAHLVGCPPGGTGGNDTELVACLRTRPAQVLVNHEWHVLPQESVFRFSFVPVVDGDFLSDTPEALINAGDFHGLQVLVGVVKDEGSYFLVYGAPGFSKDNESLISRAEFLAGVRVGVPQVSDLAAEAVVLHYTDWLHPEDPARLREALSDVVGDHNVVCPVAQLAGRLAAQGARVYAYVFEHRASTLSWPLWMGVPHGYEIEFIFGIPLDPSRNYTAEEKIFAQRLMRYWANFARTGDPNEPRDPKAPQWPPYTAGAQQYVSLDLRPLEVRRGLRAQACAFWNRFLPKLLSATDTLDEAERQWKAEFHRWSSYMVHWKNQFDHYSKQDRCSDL
# UniProt P08104, whole entry: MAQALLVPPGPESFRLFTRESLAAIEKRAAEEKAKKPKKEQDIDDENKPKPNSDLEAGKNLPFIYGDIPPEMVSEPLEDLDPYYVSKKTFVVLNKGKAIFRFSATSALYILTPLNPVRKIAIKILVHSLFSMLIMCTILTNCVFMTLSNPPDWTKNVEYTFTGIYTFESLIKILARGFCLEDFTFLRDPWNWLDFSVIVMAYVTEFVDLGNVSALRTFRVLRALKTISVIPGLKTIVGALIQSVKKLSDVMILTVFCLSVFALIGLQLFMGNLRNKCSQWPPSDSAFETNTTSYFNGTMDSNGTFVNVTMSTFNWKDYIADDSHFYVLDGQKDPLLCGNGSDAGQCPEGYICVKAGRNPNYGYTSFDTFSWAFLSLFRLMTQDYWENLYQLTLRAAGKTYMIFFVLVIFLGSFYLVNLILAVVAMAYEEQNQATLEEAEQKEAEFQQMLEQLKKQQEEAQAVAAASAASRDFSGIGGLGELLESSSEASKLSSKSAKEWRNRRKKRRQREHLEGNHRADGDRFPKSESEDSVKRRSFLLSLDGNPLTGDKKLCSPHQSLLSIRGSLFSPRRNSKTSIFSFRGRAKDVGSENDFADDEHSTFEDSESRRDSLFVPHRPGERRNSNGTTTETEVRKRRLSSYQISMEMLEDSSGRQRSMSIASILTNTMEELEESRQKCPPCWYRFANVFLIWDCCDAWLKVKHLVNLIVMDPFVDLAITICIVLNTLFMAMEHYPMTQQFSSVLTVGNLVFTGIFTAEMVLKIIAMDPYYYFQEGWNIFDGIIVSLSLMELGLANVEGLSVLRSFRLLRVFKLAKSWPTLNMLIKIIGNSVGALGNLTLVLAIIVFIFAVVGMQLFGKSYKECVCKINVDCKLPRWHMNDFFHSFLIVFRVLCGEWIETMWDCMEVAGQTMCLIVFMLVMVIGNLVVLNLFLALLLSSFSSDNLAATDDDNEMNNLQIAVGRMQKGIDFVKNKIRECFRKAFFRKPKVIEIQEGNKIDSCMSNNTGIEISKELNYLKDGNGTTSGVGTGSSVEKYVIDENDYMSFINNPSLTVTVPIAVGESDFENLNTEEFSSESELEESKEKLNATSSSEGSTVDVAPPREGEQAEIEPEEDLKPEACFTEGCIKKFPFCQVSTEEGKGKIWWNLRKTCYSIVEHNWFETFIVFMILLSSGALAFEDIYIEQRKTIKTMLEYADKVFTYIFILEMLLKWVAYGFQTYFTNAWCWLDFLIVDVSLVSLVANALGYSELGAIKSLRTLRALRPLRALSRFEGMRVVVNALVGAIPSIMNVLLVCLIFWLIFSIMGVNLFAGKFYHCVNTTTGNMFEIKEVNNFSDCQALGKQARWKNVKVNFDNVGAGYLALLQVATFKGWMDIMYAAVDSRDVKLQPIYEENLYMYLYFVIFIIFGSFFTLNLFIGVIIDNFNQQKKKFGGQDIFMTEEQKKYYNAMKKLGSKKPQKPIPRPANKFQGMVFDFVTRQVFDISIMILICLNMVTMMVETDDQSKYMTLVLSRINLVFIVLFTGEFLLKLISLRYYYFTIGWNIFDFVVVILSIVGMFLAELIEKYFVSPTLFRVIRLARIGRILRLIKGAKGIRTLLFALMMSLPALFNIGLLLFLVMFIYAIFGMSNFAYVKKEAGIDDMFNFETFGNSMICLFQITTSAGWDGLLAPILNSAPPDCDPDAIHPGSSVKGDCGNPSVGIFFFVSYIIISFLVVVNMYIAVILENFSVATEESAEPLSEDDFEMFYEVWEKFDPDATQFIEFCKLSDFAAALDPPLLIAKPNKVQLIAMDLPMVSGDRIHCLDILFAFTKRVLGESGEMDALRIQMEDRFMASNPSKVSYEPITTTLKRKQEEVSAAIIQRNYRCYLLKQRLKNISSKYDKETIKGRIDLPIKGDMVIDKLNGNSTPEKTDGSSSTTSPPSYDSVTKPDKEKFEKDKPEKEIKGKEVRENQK
# UniProt P15390, whole entry: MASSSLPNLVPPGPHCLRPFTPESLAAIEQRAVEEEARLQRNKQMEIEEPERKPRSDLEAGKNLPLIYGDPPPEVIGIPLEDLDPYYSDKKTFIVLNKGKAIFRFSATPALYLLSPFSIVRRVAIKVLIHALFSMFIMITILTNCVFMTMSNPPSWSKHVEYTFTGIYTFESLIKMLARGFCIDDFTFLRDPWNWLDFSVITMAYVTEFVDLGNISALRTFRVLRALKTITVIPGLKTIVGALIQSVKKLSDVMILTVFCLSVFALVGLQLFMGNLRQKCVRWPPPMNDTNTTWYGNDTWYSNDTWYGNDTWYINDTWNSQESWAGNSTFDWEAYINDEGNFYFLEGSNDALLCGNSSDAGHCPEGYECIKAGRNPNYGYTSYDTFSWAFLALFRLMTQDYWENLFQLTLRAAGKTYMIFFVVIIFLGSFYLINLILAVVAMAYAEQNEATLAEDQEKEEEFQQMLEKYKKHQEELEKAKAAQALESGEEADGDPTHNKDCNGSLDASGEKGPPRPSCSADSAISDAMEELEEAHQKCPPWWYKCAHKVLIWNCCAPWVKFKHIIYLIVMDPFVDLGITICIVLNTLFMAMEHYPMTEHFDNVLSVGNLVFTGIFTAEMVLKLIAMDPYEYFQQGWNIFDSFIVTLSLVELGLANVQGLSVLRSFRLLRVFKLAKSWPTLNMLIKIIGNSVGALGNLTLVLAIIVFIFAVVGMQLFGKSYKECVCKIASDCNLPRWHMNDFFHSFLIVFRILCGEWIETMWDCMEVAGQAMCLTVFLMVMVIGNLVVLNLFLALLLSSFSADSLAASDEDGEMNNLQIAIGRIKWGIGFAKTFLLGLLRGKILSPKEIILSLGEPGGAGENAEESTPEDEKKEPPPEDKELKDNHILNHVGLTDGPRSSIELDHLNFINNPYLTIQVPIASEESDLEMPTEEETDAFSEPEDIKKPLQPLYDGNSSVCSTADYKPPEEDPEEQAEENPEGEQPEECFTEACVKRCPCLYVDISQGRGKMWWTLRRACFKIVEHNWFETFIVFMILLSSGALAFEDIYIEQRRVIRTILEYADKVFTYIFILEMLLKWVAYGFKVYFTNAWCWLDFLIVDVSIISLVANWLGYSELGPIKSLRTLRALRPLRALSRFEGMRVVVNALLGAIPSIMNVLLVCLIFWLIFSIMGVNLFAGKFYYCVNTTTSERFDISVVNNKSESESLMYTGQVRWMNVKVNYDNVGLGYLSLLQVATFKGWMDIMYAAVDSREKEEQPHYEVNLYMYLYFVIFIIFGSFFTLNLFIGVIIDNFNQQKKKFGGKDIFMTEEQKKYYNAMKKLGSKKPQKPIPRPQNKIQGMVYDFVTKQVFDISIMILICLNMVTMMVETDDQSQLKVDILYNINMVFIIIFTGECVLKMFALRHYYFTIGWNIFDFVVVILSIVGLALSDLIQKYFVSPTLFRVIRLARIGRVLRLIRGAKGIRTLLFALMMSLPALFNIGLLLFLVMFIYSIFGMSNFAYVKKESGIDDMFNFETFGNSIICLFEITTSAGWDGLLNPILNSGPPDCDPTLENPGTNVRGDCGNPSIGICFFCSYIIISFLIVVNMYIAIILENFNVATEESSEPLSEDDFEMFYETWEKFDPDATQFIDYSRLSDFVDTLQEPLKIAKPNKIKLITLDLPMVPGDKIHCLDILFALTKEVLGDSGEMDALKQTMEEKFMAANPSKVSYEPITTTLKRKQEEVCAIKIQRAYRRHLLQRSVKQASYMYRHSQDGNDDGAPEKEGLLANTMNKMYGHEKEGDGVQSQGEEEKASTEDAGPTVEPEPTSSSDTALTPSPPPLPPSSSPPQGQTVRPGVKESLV
# UniProt P30926, whole entry, looked up: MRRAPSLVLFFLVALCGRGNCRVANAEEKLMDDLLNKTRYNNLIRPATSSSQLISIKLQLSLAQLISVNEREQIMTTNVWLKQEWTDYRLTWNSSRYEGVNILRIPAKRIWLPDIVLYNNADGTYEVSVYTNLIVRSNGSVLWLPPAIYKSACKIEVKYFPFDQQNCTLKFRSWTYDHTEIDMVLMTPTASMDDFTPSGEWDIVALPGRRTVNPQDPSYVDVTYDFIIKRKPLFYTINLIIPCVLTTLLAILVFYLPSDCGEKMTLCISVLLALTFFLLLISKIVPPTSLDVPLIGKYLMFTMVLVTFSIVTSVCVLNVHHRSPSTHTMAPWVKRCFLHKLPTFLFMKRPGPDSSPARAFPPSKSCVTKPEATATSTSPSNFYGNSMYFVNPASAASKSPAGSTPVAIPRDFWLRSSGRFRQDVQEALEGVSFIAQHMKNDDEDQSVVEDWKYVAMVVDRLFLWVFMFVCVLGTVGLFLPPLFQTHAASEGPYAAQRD
# UniProt P32297, whole entry, looked up: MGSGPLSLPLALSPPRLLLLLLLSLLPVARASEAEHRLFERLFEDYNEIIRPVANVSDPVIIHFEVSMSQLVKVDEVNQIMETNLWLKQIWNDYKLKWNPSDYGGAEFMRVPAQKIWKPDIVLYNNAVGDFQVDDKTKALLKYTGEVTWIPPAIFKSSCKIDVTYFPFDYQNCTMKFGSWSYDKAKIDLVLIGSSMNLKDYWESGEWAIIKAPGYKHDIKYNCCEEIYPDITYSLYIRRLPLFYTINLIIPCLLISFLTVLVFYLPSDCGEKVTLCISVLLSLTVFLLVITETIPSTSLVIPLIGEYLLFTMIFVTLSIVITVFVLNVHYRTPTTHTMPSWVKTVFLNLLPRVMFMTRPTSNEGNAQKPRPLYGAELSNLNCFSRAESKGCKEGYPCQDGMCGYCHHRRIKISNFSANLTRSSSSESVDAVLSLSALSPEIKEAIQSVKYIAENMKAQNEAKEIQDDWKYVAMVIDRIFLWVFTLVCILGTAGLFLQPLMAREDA
# UniProt P63096, 2-354 partner limits assumed: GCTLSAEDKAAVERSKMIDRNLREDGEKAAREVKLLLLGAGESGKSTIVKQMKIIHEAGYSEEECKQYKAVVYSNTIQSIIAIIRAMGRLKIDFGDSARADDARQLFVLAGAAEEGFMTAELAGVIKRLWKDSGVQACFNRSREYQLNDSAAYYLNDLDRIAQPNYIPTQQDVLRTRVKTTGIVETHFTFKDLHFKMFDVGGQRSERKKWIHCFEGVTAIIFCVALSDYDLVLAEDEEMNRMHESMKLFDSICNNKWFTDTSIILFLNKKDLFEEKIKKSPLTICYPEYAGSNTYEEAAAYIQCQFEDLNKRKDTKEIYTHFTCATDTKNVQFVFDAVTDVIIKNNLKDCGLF
# UniProt P59768, 2-68 partner limits assumed: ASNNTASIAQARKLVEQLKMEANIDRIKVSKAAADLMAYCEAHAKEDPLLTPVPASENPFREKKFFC
# Each line is one published result; not all experiments were run side by side. ± gives the spread as reported.
# PTPN3: Tyrosine-protein phosphatase non-receptor type 3 (PTPN3, Homo sapiens, UniProt P26045)
# OPRL1: Nociceptin receptor (OPRL1, Homo sapiens, UniProt P41146)
# ache: Acetylcholinesterase (ache, Electrophorus electricus, UniProt O42275)
# Scn2a: Sodium channel protein type 2 subunit alpha (Scn2a, Rattus norvegicus, UniProt P04775)
SMILES,target or system,test,test system,setting,how to read,quantity,result
CC[C@H](C)[C@H](NC(=O)[C@H](C)NC(=O)[C@H](CCC(=O)O)NC(=O)[C@H](CCC(=O)O)NC(=O)[C@H](CC(C)C)NC(=O)[C@H](CCCCN)NC(=O)[C@H](CCCCN)NC(=O)[C@H](CCSC)NC(=O)[C@H](CCC(=O)O)NC(=O)[C@H](Cc1ccc(O)cc1)NC(=O)[C@H](CCC(=O)O)NC(=O)[C@H](CC(C)C)NC(=O)[C@H](CC(=O)O)NC(=O)[C@H](CC(C)C)NC(=O)[C@H](Cc1ccccc1)NC(=O)[C@H](Cc1ccccc1)NC(=O)[C@@H](NC(=O)[C@H](CC(N)=O)NC(=O)[C@@H](NC(=O)[C@H](CCC(N)=O)NC(=O)[C@H](CC(=O)O)NC(=O)[C@H](CC(C)C)NC(=O)[C@@H](N)CO)[C@@H](C)CC)C(C)C)C(=O)N[C@@H](CCCCN)C(=O)N[C@@H](CCCCN)C(=O)N[C@@H](CC(C)C)C(=O)N[C@@H](CCC(=O)O)C(=O)N[C@@H](CCC(=O)O)C(=O)N[C@@H](C)C(=O)N[C@@H](Cc1ccc(O)cc1)C(=O)N[C@H](C(=O)N[C@@H](CC(=O)O)C(=O)N[C@@H](CC(C)C)C(=O)N[C@@H](CCCCN)C(=O)N[C@@H](CCC(=O)O)C(=O)N[C@@H](CC(C)C)C(=O)O)[C@@H](C)CC,SARS-CoV-2 JN.1 pseudovirus,"pseudovirus infection, inhibitor, luciferase",Caco-2,"24 h, dual mutations",,IC50,562 nM
CC(=O)N[C@@H](Cc1c[nH]cn1)C(=O)N[C@@H](CC(=O)O)C(=O)NCC(=O)N[C@@H](CC(C)C)C(=O)N[C@@H](Cc1cc(=O)oc2cc(OP(=O)(O)O)ccc12)C(=O)N[C@@H](CCC(N)=O)C(=O)NCC(=O)N[C@@H](CC(C)C)C(=O)N[C@@H](CO)C(=O)N[C@H](C(=O)N[C@@H](C)C(=O)N[C@H](C(=O)N[C@@H](CCCCN)C(=O)N[C@@H](CC(=O)O)C(=O)N[C@H](C(=O)N[C@@H](Cc1ccc(O)cc1)C(=O)N[C@@H](CC(=O)O)C(=O)N[C@@H](C)C(=O)N[C@@H](CC(C)C)C(=O)N[C@@H](Cc1c[nH]cn1)C(N)=O)[C@@H](C)O)[C@@H](C)O)[C@@H](C)O,PTPN3,substrate,,"pH 6, TCR zeta-chain ITAM peptide",,kcat,1.12 s⁻¹
CC[C@H](C)[C@H](NC(=O)[C@H](C)NC(=O)[C@H](CCC(=O)O)NC(=O)[C@H](CCC(=O)O)NC(=O)[C@H](CC(C)C)NC(=O)[C@H](CCCCN)NC(=O)[C@H](CCCCN)NC(=O)[C@H](CCSC)NC(=O)[C@H](CCC(=O)O)NC(=O)[C@H](Cc1ccc(O)cc1)NC(=O)[C@H](CCC(=O)O)NC(=O)[C@H](CC(C)C)NC(=O)[C@H](CC(=O)O)NC(=O)[C@H](CC(C)C)NC(=O)[C@H](Cc1ccccc1)NC(=O)[C@@H](NC(=O)[C@@H](NC(=O)[C@H](CC(N)=O)NC(=O)[C@@H](NC(=O)[C@H](CCC(N)=O)NC(=O)[C@H](CC(=O)O)NC(=O)[C@H](CC(C)C)NC(=O)[C@@H](N)CO)[C@@H](C)CC)C(C)C)[C@@H](C)O)C(=O)N[C@@H](CCCCN)C(=O)N[C@@H](CCCCN)C(=O)N[C@@H](CC(C)C)C(=O)N[C@@H](CCC(=O)O)C(=O)N[C@@H](CCC(=O)O)C(=O)N[C@@H](CO)C(=O)N[C@@H](Cc1ccc(O)cc1)C(=O)N[C@H](C(=O)N[C@@H](CC(=O)O)C(=O)N[C@@H](CC(C)C)C(=O)N[C@@H](CCCCN)C(=O)N[C@@H](CCC(=O)O)C(=O)N[C@@H](CC(C)C)C(=O)O)[C@@H](C)CC,SARS-CoV-2 Alpha pseudovirus,"pseudovirus infection, inhibitor, luciferase",Caco-2,"24 h, dual mutations",,IC50,595 nM
CCN(CC)Cc1cc(N)ccc1O,"Acetylcholinesterase, VX-inhibited (ACHE, Homo sapiens, UniProt P22303)","enzyme reactivation, reactivator",VX,concentration not given,,reactivation rate kr,0.5 ± 0.2 min⁻¹
CC(C)[C@H](N)C(=O)NCC(=O)N[C@@H](CCC(=O)O)C(=O)N[C@@H](CCCNC(=N)N)C(=O)N[C@H]1C[Se][Se]C[C@@H]2NC(=O)[C@H](Cc3c[nH]c4ccccc34)NC(=O)[C@H](CCCNC(=N)N)NC(=O)CNC(=O)[C@H](C)NC(=O)CNC(=O)[C@H](CCCNC(=N)N)NC(=O)[C@H](CCCCN)NC(=O)CNC(=O)[C@H](CC(N)=O)NC(=O)[C@H](CCCCN)NC(=O)[C@H](CSSC[C@@H](C(=O)N[C@@H](C)C(N)=O)NC(=O)[C@H](CCCNC(=N)N)NC(=O)[C@H](CO)NC(=O)[C@H](Cc3c[nH]cn3)NC(=O)[C@H](CC(=O)O)NC(=O)[C@H](CCCNC(=N)N)NC2=O)NC1=O,"Scn3a (Rattus norvegicus, UniProt P08104)","sodium current, two-electrode voltage clamp",,,reference: analogue over wild-type µ-conotoxin BuIIIB,Kd ratio,2.1
CC(C)[C@H]1CC[C@@H](N2CCC3(CC2)C(=O)NCN3c2ccccc2)CC1,OPRL1,calcium mobilization,CHO with Gαqi5,"concentration not given, unit not given",reference: compound over N/OFQ Emax,intrinsic activity,0.99
CN(C)Cc1ccc(OC(=O)N(C)C)c(Cl)c1,ache,"enzyme activity, inhibitor, Ellman",,"14.0 µM, with: acetylthiocholine iodide",,Vmax,0.053 absorbance units/min
CNC(=O)CC1C(=O)N(C2CCN([C@H]3CC[C@@H](C(C)C)CC3)CC2)c2ccccc21 (some centres unmarked),OPRL1,"β-arrestin recruitment, BRET",HEK293,"concentration not given, unit not given, with: β-arrestin 2",reference: N/OFQ maximal effect,intrinsic activity,0.77 ± 0.07
C[C@@H]1NC(=O)[C@H](CCCNC(=N)N)NC(=O)[C@H](CO)NC(=O)[C@H](Cc2c[nH]cn2)NC(=O)[C@H](CC(=O)O)NC(=O)[C@H](CCCNC(=N)N)NC(=O)[C@@H]2CSSC[C@H](N)C(=O)N[C@@H](C)C(=O)N[C@@H](CC(N)=O)C(=O)N[C@@H](CSSC[C@@H](C(N)=O)NC1=O)C(=O)N[C@@H](CO)C(=O)N[C@@H](CO)C(=O)N[C@@H](CCCCN)C(=O)N[C@@H](Cc1c[nH]c3ccccc13)C(=O)N2,Scn2a,"sodium current, blocker, two-electrode voltage clamp",Xenopus oocytes,"1 µM, 20 min, steady state",,block,66 ± 4%
CC[C@H](C)[C@@H]1NC(=O)[C@H](CCCNC(=N)N)NC(=O)[C@@H](N)CSSC[C@@H]2NC(=O)[C@@H]3CSSC[C@@H](C(=O)N[C@H](C(=O)O)C(C)C)NC(=O)[C@H](CCCCN)NC(=O)[C@H](CC(N)=O)NC(=O)[C@H](Cc4ccccc4)NC(=O)[C@H](CCCNC(=N)N)NC(=O)[C@H](CC(N)=O)NC(=O)[C@H](CSSC[C@H](NC(=O)[C@H](CCCCN)NC(=O)[C@H](CCC(N)=O)NC(=O)[C@H](CC(N)=O)NC(=O)[C@@H]4C[C@@H](O)CN4C1=O)C(=O)N[C@@H](Cc1ccccc1)C(=O)N[C@@H](CCC(N)=O)C(=O)N[C@@H](Cc1c[nH]cn1)C(=O)N[C@@H](CC(C)C)C(=O)N[C@@H](CC(=O)O)C(=O)N[C@@H](CC(=O)O)C(=O)N3)NC(=O)[C@H](CCCCN)NC(=O)[C@H](CCCNC(=N)N)NC(=O)[C@H](CO)NC2=O,"Sh (Drosophila melanogaster, UniProt P08510, del6-46)","potassium current, outside-out patch clamp",,"500 nM, chronic application, zero voltage, internal K 15, with: 1 mM TEA",,koff,10 ± 1 s⁻¹
CC1=C[C@@H](CN2CCN(c3ncccn3)CC2)[C@H](C(C)C)C[C@H]1Cc1nnc(Cc2c[nH]c3ccccc23)o1,"Replicase polyprotein 1ab, nsp4-nsp5-nsp6 precursor (rep, Severe acute respiratory syndrome coronavirus 2, UniProt P0DTD1)","reporter gene, cell-based secondary screen",,,,luciferase signal,14 ± 1.7%
O=C1Cc2ccccc2N1C1CCN([C@@H]2CC[C@H]3CCCc4cccc2c43)CC1,OPRL1,"G protein interaction, BRET",HEK293 membranes,,reference: N/OFQ,fold lower potency,90 fold
O=C(O)C(O)=CC(=O)c1ccc(O)c(O)c1,"Replicase polyprotein 1ab, nsp14 with nsp10 (rep, Severe acute respiratory syndrome coronavirus 2, UniProt P0DTD1)","exonuclease activity, inhibitor",,20 µM,,inhibition,93%
C[C@H](N)C(=O)N[C@H]1CSSC[C@@H]2NC(=O)[C@H](CCCNC(=N)N)NC(=O)[C@H](CO)NC(=O)[C@H](Cc3c[nH]cn3)NC(=O)[C@H](CC(=O)O)NC(=O)[C@H](CCCNC(=N)N)NC(=O)[C@H](C)NC(=O)[C@H](Cc3c[nH]c4ccccc34)NC(=O)[C@H](CCCCN)NC(=O)[C@H](CO)NC(=O)[C@H](CO)NC(=O)[C@H](CSSC[C@@H](C(N)=O)NC2=O)NC(=O)[C@H](CC(N)=O)NC1=O,Scn2a,"sodium current, blocker, two-electrode voltage clamp",Xenopus oocytes,"1 µM, 20 min, steady state",,block,93 ± 2%
CC(C)[C@H](N)C(=O)N[C@H](C(=O)N[C@@H](CC(=O)O)C(=O)N[C@@H](CCCNC(=N)N)C(=O)N[C@H]1CSSC[C@@H]2NC(=O)[C@H](Cc3c[nH]c4ccccc34)NC(=O)[C@H](CCCNC(=N)N)NC(=O)CNC(=O)[C@@H]3CSSC[C@@H](C(N)=O)NC(=O)[C@H](CSSC[C@H](NC1=O)C(=O)N[C@@H](CCCCN)C(=O)NCC(=O)N[C@@H](CCCCN)C(=O)N[C@@H](CCCNC(=N)N)C(=O)N[C@@H](CCC(=O)O)C(=O)N3)NC(=O)[C@H](CCCNC(=N)N)NC(=O)[C@H](CO)NC(=O)[C@H](Cc1c[nH]cn1)NC(=O)[C@H](CC(=O)O)NC(=O)[C@H](CCCNC(=N)N)NC2=O)[C@@H](C)O,"Scn4a (Rattus norvegicus, UniProt P15390)","sodium current, two-electrode voltage clamp",Xenopus oocytes,"1 µM, 30 min",,inhibition,~87%
COC(=O)CN1CN(c2ccccc2)C2(CCN(Cc3cccc4ccccc34)CC2)C1=O,OPRL1,GIRK channel activation,AtT20 expressing OPRL1,,reference: N/OFQ,potency loss,~40 fold
Nc1ncnc2c1ncn2[C@@H]1O[C@H](COP(=O)(O)OP(=O)(O)OP(=O)(O)O)[C@@H](O)[C@H]1O,"Genome polyprotein, RNA polymerase 3D (Human poliovirus 1 Mahoney, UniProt P03300, K2107H)",substrate,,pH 7.5,,kpol,4.9 ± 0.4 s⁻¹
CC[C@H](C)[C@@H]1NC(=O)[C@H](CCC(=O)O)NC(=O)[C@@H]2CCCN2C(=O)[C@H](Cc2c[nH]cn2)NC(=O)[C@H](CC(=O)O)NC(=O)[C@H](C(C)C)NC(=O)[C@H](CC(N)=O)NC(=O)[C@@H]2CSSC[C@H](NC(=O)[C@H](CCC(N)=O)NC(=O)[C@@H]3CCCN3C(=O)[C@@H](N)CCCNC(=N)N)C(=O)N[C@@H](CSSC[C@@H](C(N)=O)NC1=O)C(=O)N[C@@H](CO)C(=O)N[C@@H](Cc1c[nH]cn1)C(=O)N1CCC[C@H]1C(=O)N[C@@H](C)C(=O)N2,"Neuronal acetylcholine receptor; alpha3/beta4 (Homo sapiens, UniProt P30926+P32297)","ACh-evoked current, antagonist, two-electrode voltage clamp",Xenopus oocytes,"5 min, pH 7.4, holding potential -70 mV",,maximal inhibition,77%
CS(=O)(=O)C=CCNC(=O)c1ccc2[nH]c(=O)n(C3CC3)c2c1,"Polyprotein P1234, nsP2 protease (Chikungunya virus, UniProt Q5XXP4)",time-dependent inhibition,,,,kinact/KI,110 ± 4 M⁻¹ s⁻¹
Cc1ccc(S(=O)(=O)Nc2cccc(C(=O)NC3CCN(c4ncnc5[nH]cnc45)CC3)c2)cc1,"Replicase polyprotein 1ab, nsp14 ExoN with nsp10 (rep, Severe acute respiratory syndrome coronavirus 2, UniProt P0DTD1)",ExoN activity,,0.7812 µM,,inhibition,11.8%
O=P(O)(O)C(F)(F)c1cccc(-c2ccc(CO/N=C/c3ccoc3)cc2)c1,"Secreted effector protein (Yersinia pestis, UniProt O68720, C403A/D356A)",surface plasmon resonance,,immobilized protein,,ΔG,-5.08 kcal/mol
CC(=O)N[C@@H](Cc1c[nH]cn1)C(=O)N[C@@H](CC(=O)O)C(=O)NCC(=O)N[C@@H](CC(C)C)C(=O)N[C@@H](Cc1cc(=O)oc2cc(OP(=O)(O)O)ccc12)C(=O)N[C@@H](CCC(N)=O)C(=O)NCC(=O)N[C@@H](CC(C)C)C(=O)N[C@@H](CO)C(=O)N[C@H](C(=O)N[C@@H](C)C(=O)N[C@H](C(=O)N[C@@H](CCCCN)C(=O)N[C@@H](CC(=O)O)C(=O)N[C@H](C(=O)N[C@@H](Cc1ccc(OP(=O)(O)O)cc1)C(=O)N[C@@H](CC(=O)O)C(=O)N[C@@H](C)C(=O)N[C@@H](CC(C)C)C(=O)N[C@@H](Cc1c[nH]cn1)C(N)=O)[C@@H](C)O)[C@@H](C)O)[C@@H](C)O,PTPN3,substrate,,"pH 6, TCR zeta-chain ITAM peptide",,kcat/Km,22800 M⁻¹ s⁻¹
O=C(C1CCNC1)N1CCc2c(F)cc(F)cc21 (centres unmarked),ache,"enzyme activity, inhibitor, Ellman",,"21.9 µM, with: acetylthiocholine iodide",,Vmax,0.105 absorbance units/min

# For quick reference, copied from above:
SMILES,target or system,test,test system,setting,how to read,quantity,result
Cc1ccc(S(=O)(=O)Nc2cccc(C(=O)NC3CCN(c4ncnc5[nH]cnc45)CC3)c2)cc1,"Replicase polyprotein 1ab, nsp14 ExoN with nsp10 (rep, Severe acute respiratory syndrome coronavirus 2, UniProt P0DTD1)",ExoN activity,,0.7812 µM,,inhibition,11.8%
O=P(O)(O)C(F)(F)c1cccc(-c2ccc(CO/N=C/c3ccoc3)cc2)c1,"Secreted effector protein (Yersinia pestis, UniProt O68720, C403A/D356A)",surface plasmon resonance,,immobilized protein,,ΔG,-5.08 kcal/mol
